# Experimental data gathered from unrelated publications.
# Numbered parts are unrelated; each lists some results of a single study. Values joined by “and” are separate records of one study, mostly repeats; a detail may differ.
# Chain of UniProt P35368 (whole entry, looked up): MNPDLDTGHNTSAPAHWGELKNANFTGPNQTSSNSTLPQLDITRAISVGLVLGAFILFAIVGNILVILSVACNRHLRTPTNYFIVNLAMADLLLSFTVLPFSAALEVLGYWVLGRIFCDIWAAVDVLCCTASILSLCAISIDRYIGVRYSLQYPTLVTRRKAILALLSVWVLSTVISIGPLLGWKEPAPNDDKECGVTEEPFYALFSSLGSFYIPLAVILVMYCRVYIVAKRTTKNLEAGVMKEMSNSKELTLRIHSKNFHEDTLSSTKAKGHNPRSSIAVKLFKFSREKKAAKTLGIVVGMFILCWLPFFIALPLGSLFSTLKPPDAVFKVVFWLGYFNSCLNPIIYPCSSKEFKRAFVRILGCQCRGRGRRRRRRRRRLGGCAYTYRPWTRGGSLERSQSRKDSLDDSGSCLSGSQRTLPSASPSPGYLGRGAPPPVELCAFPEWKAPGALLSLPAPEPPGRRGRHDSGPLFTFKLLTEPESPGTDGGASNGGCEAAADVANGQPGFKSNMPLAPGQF
# Chain of UniProt P25021 (whole entry, looked up): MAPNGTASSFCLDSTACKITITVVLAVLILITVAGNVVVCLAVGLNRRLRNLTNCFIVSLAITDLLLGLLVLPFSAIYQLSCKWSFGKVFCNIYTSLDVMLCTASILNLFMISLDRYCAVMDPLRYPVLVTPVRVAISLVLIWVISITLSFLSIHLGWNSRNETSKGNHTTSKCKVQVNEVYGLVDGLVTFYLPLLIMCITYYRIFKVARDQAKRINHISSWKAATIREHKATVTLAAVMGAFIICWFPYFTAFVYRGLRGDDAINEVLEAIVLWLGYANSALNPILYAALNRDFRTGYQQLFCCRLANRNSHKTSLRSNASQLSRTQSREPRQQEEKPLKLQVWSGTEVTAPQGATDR
# Chain of UniProt P34969 (whole entry, looked up): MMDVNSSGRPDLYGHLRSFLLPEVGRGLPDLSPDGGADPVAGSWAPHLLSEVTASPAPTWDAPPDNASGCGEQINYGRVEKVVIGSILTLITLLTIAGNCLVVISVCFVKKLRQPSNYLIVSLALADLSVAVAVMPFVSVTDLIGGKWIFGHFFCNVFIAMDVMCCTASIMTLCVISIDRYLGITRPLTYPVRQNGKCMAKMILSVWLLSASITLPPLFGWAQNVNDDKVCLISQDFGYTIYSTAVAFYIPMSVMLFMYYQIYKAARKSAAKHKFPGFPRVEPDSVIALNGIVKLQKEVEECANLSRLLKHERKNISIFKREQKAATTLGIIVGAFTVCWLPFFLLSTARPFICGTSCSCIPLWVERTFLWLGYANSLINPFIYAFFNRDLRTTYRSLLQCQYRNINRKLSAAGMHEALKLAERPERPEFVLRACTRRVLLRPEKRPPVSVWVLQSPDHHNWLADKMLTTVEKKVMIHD
# Chain of UniProt P25100 (whole entry, looked up): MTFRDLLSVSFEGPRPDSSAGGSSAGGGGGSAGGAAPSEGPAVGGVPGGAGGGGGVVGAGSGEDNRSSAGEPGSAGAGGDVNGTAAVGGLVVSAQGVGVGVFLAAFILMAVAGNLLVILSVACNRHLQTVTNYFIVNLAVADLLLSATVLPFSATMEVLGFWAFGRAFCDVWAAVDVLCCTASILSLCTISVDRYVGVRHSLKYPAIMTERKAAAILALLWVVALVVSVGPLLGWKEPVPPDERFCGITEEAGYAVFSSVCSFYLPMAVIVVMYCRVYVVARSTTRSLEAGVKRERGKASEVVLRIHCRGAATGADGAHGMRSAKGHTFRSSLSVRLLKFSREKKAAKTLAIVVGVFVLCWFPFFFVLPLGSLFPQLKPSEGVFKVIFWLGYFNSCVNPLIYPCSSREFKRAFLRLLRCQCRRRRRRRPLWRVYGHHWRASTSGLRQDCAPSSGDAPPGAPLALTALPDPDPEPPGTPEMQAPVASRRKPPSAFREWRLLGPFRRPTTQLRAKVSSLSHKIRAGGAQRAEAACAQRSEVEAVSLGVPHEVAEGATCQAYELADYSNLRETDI
# Chain of UniProt P08173 (whole entry, looked up): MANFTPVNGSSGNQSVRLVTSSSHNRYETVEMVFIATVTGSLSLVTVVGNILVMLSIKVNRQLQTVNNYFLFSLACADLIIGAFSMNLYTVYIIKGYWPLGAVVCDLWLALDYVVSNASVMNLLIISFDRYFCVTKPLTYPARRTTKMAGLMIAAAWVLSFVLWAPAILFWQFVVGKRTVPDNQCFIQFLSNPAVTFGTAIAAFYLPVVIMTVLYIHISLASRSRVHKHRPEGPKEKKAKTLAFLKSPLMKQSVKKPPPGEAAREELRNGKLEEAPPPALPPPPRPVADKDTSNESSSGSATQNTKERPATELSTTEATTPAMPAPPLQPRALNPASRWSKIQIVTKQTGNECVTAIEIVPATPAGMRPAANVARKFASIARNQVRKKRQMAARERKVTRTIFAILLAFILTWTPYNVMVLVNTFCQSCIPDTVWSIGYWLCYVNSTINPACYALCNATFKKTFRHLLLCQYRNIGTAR
# Chain of UniProt P35367 (whole entry, looked up): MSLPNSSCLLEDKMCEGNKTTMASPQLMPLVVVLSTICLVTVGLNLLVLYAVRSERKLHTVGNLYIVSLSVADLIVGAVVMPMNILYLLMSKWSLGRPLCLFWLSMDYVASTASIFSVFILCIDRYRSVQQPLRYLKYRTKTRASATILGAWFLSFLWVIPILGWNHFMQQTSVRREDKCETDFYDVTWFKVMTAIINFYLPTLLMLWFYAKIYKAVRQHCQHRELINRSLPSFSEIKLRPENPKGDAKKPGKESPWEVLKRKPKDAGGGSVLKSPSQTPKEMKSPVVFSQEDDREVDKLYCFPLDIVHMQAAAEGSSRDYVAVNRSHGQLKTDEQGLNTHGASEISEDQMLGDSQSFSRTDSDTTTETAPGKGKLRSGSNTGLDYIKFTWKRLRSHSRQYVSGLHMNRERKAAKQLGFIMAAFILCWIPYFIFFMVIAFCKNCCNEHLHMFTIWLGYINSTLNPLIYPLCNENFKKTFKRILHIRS
# Chain of UniProt P18825 (whole entry, looked up): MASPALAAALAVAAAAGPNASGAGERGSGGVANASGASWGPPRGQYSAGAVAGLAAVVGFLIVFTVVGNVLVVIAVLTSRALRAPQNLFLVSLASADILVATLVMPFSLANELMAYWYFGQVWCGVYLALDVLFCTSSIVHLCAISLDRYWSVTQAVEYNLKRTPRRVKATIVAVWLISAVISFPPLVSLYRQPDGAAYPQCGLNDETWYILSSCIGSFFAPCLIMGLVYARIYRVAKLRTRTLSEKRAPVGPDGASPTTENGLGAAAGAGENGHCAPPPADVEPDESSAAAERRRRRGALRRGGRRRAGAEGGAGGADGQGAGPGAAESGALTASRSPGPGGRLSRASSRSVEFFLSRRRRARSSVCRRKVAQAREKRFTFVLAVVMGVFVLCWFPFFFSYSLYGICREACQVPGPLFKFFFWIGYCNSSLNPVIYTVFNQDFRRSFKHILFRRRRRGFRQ
# Chain of UniProt P18089 (whole entry, looked up): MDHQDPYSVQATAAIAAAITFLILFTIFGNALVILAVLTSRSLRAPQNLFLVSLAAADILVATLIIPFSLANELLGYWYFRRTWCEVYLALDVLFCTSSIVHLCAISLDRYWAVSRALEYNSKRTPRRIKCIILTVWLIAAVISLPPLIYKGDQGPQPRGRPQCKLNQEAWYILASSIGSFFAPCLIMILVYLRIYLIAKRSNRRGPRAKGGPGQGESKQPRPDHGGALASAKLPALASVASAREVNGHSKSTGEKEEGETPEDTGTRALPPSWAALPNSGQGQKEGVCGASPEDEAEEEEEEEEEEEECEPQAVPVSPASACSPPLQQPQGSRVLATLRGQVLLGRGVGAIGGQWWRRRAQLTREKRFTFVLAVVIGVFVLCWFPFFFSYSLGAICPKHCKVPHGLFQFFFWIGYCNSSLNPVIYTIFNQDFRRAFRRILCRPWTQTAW
# Chain of UniProt P21728 (whole entry, looked up): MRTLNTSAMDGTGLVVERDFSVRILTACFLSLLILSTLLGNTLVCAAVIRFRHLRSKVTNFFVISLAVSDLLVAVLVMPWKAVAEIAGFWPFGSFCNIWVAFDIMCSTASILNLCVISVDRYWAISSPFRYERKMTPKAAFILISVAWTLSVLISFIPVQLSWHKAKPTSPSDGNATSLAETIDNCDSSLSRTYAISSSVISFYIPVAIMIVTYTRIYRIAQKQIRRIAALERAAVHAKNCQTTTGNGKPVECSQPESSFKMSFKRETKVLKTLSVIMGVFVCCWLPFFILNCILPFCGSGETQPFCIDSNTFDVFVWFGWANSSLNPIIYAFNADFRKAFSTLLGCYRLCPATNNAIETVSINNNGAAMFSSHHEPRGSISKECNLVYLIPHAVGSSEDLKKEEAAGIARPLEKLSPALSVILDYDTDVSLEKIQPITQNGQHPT
# Chain of UniProt P08172 (whole entry, looked up): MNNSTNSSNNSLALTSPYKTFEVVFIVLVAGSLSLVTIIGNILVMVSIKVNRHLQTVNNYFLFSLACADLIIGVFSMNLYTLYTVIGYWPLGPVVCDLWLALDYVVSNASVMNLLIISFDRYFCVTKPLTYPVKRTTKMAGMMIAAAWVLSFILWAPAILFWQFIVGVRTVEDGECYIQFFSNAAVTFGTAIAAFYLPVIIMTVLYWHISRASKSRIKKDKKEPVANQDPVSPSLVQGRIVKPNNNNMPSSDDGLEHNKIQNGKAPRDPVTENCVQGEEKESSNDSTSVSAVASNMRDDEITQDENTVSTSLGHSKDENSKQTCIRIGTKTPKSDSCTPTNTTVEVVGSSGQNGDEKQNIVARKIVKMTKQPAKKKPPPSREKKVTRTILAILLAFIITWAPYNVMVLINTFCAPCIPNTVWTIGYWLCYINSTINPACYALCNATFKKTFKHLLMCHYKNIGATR

# Block 1 — method: phase 2a trial
# Structure (SMILES): CC(C)n1cnc(-c2ccc(F)cc2)c1-c1ncc(C(=O)Nc2ccc(N3CCN(C)CC3)cc2)[nH]1
species,route,dose,setting,patients with TEAE
patients with idiopathic pulmonary fibrosis,,30 mg once daily,"atopic dermatitis, grade 3",0%
patients with idiopathic pulmonary fibrosis,,dose not given,"nervous system disorders SOC, grade 2, all arms",0%
idiopathic pulmonary fibrosis patients,oral,30 mg once daily,"LDL increased, grade 5",0%
idiopathic pulmonary fibrosis patients,oral,30 mg once daily,"ESR increased, grade 1",0%
patients with idiopathic pulmonary fibrosis,,dose not given,"nervous system disorders SOC, grade 5, all arms",0%

# Block 2 — organism: Cryptosporidium parvum; method: time-kill; cell line: HCT-8; strain: nanoluciferase-expressing; baseline: DMSO control
# SMILES: CN(C(=O)c1ccn2ncc(-c3ccc(C(N)=O)cc3)c2c1)c1ccc(C#N)cn1
tested at,time,luminescence remaining
6.667 µM,72 h,15.4% and 11.8%
0.7407 µM,8 h,112% and 122%
0.02743 µM,4 h,83.8% and 87.8%
0.7407 µM,24 h,26.8% and 34.4%
0.00102 µM,72 h,104% and 64.4%
0.7407 µM,72 h,8.67% and 9.14%

# Block 3 — effect on: binding; method: radioligand binding; tested at: 10 µM
# Structure (SMILES): CCCCN(CCCC)C(=O)CN1C[C@@H](c2cc(OC)c3c(c2)OCO3)[C@H](C(=O)O)[C@H]1CC(C)(C)CCC
target,inhibition [%]
"5-hydroxytryptamine receptor 7 (HTR7, Homo sapiens, UniProt P34969)",-11.7
"Muscarinic acetylcholine receptor M2 (CHRM2, Homo sapiens, UniProt P08172)",3.71
"Alpha-2C adrenergic receptor (ADRA2C, Homo sapiens, UniProt P18825)",56.1
"Histamine H2 receptor (HRH2, Homo sapiens, UniProt P25021)",8.46
"Alpha-1B adrenergic receptor (ADRA1B, Homo sapiens, UniProt P35368)",6.5
"Beta-3 adrenergic receptor (ADRB3, Homo sapiens, UniProt P13945)",28.4
"Histamine H1 receptor (HRH1, Homo sapiens, UniProt P35367)",47.4
"Alpha-1D adrenergic receptor (ADRA1D, Homo sapiens, UniProt P25100)",6.55
"D(1A) dopamine receptor (DRD1, Homo sapiens, UniProt P21728)",16.6
"Muscarinic acetylcholine receptor M4 (CHRM4, Homo sapiens, UniProt P08173)",-19.2
"Histamine H4 receptor (HRH4, Homo sapiens, UniProt Q9H3N8)",4.1
"Alpha-2B adrenergic receptor (ADRA2B, Homo sapiens, UniProt P18089)",50

# Mixed results — cell line: THP-1; effect on: host cell growth
SMILES,tested at,inhibition
CCCCCCCCCCCCCCCCOP(=O)([O-])OCC[N+](C)(C)C,0.02 µM,-3.67% and -0.39% and -0.86% and -0.93% and -1.49% and -4.56%
C[C@@H]1[C@H](O)[C@@H](C)/C=C/C=C/C=C/C=C/C=C/C=C/C=C/[C@H](O[C@@H]2O[C@H](C)[C@@H](O)[C@H](N)[C@@H]2O)C[C@@H]2O[C@](O)(C[C@@H](O)C[C@@H](O)[C@H](O)CC[C@@H](O)C[C@@H](O)CC(=O)O[C@H]1C)C[C@H](O)[C@H]2C(=O)O,0.01 µM,-2.42% and -0.69% and -1.39% and -1.97% and -0.92% and -0.28%

# Excerpt of the above (block 1):
species,route,dose,setting,patients with TEAE
patients with idiopathic pulmonary fibrosis,,dose not given,"nervous system disorders SOC, grade 2, all arms",0%
